Published values of several laboratories.
Each line is one published result; not all experiments were run side by side. “And” joins repeats or separate records; there may be more than shown. ± marks the error that the study gave.
JAK2: Tyrosine-protein kinase JAK2 (JAK2, Homo sapiens, UniProt O60674)
UniProt O60674, sequence (whole entry, looked up): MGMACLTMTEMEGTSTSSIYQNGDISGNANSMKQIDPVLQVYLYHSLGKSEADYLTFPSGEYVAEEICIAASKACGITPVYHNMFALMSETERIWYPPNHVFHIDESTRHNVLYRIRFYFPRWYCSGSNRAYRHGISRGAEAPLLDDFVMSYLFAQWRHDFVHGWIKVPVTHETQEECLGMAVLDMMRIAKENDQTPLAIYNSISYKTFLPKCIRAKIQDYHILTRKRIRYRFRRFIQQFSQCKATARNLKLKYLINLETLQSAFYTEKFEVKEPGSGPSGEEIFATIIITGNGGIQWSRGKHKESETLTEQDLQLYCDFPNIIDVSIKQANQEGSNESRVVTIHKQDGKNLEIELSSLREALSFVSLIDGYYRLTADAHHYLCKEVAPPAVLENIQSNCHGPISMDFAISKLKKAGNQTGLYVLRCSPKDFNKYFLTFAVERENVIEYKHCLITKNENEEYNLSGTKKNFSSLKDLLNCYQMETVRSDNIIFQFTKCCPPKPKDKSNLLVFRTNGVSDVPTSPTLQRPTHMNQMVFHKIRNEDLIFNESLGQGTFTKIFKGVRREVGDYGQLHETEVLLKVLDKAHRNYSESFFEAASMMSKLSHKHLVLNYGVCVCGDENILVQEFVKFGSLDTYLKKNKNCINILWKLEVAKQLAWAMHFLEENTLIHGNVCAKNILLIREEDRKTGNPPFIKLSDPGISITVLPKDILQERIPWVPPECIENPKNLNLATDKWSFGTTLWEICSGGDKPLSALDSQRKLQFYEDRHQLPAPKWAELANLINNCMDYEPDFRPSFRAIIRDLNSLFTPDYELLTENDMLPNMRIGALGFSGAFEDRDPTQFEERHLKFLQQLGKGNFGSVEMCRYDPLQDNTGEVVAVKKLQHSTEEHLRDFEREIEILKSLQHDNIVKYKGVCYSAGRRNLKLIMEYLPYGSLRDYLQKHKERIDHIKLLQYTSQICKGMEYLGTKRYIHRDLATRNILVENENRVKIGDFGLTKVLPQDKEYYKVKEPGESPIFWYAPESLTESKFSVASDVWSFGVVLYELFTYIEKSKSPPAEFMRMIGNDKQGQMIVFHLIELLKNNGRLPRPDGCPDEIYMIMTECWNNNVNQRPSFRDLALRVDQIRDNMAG
SRD5A1: 3-oxo-5-alpha-steroid 4-dehydrogenase 1 (SRD5A1, Homo sapiens, UniProt P18405)
UniProt P18405, sequence (whole entry, looked up): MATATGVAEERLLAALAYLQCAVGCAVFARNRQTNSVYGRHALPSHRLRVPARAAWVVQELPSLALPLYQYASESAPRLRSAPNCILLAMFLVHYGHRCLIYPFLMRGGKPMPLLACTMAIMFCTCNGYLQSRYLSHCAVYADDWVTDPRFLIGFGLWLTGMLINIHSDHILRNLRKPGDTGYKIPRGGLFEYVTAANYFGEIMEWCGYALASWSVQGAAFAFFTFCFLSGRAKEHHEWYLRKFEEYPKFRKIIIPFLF
CTSB: Cathepsin B (CTSB, Homo sapiens, UniProt P07858)
AGER: Advanced glycosylation end product-specific receptor (AGER, Homo sapiens, UniProt Q15109)
UniProt Q15109, sequence (whole entry, looked up): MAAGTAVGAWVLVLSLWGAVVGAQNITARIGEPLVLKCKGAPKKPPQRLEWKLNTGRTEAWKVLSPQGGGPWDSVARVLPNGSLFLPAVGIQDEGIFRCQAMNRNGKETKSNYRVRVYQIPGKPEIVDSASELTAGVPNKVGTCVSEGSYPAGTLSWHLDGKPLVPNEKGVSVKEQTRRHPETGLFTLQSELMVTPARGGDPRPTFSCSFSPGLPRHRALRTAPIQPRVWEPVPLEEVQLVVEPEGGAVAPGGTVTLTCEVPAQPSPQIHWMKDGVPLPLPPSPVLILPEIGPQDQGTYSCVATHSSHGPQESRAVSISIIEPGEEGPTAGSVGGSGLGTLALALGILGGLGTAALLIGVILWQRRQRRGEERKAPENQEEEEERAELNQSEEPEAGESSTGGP
NR3C1: Glucocorticoid receptor (NR3C1, Homo sapiens, UniProt P04150)
UniProt P04150, sequence (whole entry, looked up): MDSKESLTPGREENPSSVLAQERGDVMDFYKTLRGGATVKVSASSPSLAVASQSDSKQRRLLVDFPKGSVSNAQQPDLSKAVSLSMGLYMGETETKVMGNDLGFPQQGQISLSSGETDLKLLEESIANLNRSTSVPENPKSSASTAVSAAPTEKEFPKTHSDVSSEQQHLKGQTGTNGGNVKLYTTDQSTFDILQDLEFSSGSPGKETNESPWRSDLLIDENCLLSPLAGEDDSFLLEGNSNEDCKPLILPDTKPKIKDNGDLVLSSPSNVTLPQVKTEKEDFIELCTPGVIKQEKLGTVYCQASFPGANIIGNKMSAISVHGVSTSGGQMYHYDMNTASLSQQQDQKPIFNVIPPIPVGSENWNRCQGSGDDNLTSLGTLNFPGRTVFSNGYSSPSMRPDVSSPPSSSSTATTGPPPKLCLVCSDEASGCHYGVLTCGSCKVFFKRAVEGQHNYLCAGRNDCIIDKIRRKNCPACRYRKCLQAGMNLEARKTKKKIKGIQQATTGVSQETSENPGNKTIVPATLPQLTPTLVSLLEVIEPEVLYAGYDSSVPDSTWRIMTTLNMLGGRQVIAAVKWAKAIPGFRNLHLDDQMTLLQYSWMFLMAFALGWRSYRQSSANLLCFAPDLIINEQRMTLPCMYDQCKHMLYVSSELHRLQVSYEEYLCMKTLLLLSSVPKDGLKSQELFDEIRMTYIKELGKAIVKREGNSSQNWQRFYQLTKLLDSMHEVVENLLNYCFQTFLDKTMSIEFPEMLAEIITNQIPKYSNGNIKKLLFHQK
SIRT2: NAD-dependent protein deacetylase sirtuin-2 (SIRT2, Homo sapiens, UniProt Q8IXJ6)
UniProt Q8IXJ6, sequence (whole entry, looked up): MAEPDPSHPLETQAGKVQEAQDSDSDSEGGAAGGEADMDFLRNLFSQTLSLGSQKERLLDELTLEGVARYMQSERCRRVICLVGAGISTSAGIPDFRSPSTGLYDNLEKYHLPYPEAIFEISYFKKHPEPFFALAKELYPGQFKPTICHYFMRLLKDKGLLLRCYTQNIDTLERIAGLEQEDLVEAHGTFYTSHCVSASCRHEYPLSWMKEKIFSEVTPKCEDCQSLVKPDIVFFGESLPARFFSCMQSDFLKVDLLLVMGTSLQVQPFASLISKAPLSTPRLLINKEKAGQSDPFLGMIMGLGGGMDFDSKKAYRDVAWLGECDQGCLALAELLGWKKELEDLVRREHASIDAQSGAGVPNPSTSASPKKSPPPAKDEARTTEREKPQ
UniProt P07949, sequence (whole entry, unmodified, looked up): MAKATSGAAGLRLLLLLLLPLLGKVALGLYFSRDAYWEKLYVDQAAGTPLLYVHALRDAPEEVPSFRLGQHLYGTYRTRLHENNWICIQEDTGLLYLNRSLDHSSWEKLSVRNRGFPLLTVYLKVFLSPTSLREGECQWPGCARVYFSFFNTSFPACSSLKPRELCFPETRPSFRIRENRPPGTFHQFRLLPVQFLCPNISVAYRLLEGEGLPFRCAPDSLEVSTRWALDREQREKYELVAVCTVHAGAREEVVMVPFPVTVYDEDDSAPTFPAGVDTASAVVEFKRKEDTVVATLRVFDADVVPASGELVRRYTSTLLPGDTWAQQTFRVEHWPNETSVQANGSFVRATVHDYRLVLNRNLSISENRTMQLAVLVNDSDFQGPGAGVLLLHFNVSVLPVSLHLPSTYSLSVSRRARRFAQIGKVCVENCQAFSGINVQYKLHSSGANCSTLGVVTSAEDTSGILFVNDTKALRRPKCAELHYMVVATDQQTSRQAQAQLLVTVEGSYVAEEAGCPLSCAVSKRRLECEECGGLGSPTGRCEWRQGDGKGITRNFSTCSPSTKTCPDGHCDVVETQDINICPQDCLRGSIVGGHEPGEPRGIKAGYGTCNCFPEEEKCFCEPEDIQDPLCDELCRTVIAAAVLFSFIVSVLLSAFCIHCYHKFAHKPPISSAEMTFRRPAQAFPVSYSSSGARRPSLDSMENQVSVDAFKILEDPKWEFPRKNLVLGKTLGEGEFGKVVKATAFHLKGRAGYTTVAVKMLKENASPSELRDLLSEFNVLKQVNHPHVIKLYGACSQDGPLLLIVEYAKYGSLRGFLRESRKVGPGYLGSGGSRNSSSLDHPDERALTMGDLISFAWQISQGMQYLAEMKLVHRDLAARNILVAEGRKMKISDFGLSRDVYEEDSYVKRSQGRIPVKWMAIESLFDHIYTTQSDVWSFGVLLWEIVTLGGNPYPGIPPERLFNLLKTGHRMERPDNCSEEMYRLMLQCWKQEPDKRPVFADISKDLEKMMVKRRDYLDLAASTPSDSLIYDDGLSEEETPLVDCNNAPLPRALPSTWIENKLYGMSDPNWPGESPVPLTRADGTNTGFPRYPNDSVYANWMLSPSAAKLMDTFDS
UniProt P35368, sequence (whole entry, looked up): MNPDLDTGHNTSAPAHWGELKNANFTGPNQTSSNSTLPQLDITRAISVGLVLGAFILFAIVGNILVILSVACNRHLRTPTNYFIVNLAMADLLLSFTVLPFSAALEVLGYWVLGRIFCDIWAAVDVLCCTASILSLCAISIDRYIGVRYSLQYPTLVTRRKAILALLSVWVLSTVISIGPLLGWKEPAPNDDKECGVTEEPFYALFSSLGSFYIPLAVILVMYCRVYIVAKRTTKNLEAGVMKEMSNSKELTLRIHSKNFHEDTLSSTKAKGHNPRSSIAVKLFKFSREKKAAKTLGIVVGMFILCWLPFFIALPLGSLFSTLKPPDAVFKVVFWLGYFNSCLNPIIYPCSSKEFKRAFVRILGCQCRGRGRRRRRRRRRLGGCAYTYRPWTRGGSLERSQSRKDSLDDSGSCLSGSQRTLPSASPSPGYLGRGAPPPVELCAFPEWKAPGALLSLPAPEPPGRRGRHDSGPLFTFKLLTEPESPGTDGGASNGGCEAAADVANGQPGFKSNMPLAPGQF
UniProt Q8TBX8, sequence (whole entry, looked up): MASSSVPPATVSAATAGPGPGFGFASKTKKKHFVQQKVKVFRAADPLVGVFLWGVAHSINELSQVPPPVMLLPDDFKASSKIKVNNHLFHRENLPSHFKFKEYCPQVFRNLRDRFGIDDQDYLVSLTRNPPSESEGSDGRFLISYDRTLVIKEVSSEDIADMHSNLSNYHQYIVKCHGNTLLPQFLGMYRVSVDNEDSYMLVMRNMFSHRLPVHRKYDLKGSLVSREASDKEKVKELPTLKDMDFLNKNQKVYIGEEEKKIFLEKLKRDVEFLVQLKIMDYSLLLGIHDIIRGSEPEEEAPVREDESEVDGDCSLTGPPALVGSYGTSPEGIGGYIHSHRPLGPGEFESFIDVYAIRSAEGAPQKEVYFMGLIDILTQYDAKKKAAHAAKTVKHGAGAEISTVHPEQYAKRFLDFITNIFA

N#Cc1cc(C(=O)c2cc(Br)ccc2O)cn(-c2ccccc2Cl)c1=O  inhibition (Adenylate cyclase type 10 (Homo sapiens, UniProt Q96PN6); inhibitor; 10 µM): 67.6%
Cc1nc2c(F)cc(-c3nc(Nc4ccc(CNC(=O)CCCCCCC(=O)NO)cc4)ncc3F)cc2n1C(C)C  inhibition (Ribosomal protein S6 kinase alpha-1 (Rps6ka1, Rattus norvegicus, UniProt Q63531); enzyme activity, inhibitor; 1 µM): 64%
CCn1cc(-c2cccc(C(F)(F)F)c2)c2sc(C(=N)NC3CCS(=O)(=O)CC3)cc2c1=O  inhibition (Bromodomain adjacent to zinc finger domain protein 2B (BAZ2B, Homo sapiens, UniProt Q9UIF8); binding, inhibitor, AlphaScreen; 1 µM): -89.6%
Cc1cnc2nc1Nc1cc(F)cc(c1)COC/C=C/COCc1cc(ccc1OCCN1CCCC1)N2  inhibition (JAK2; inhibitor, Z'-LYTE kinase; 1000 nM): 97.8% and 96.5% and 99.2%
CC(C)[C@H]1NC(=O)[C@@H](C)NC(=O)[C@@H](C(C)C)NC(=O)[C@@H](Cc2ccccc2)NC(=O)[C@@H](C(C)C)NC(=O)[C@@H]([C@H](C)O)NC(=O)[C@@H](Cc2ccc(O)cc2)NC(=O)[C@@H](CCCNC(=N)N)NC(=O)[C@@H]2CCCC[C@H]2NC(=O)[C@@H](CO)NC(=O)[C@H](Cc2ccc(O)cc2)NC(=O)CSC[C@@H](C(=O)NCCOCCOCCOCCOCCOCCOCCC(N)=O)NC(=O)[C@@H](CO)NC(=O)[C@@H](C(C)C)NC(=O)[C@@H](Cc2ccc(O)cc2)NC1=O  inhibition (Matrilysin (MMP7, Homo sapiens, UniProt P09237); enzyme activity, inhibitor; concentration not given, high-affinity phase of biphasic curve): ~65%
COc1cc(/C=C/C(=O)Oc2ccc(C(F)(F)F)c(C(F)(F)F)c2)ccc1O  inhibition (SRD5A1; enzyme activity in cells, inhibitor; HaCaT; 5 µM): 45.8%
Cc1ccc(CNC(=O)[C@H](CCc2ccccc2)NC(=O)[C@H](CCc2ccccc2)NC(=O)Cc2cccc(Oc3ccccc3)c2)cc1  inhibition (CTSB; enzyme activity, inhibitor; 100 µM): 15%
C[Si]1(C[C@H](CN)CC(=O)O)CCCC1  inhibition (5-hydroxytryptamine receptor 1B (Htr1b, Rattus norvegicus, UniProt P28564); ligand displacement, radioligand; 70 µM): 3%
CS(=O)(=O)Nc1cccc(-c2csc3cnc(Nc4ccc(N5CCN(CCCCCOc6cccc7c6C(=O)N(C6CCC(=O)NC6=O)C7=O)CC5)cc4)nc23)c1 (centres unmarked)  inhibition (Acylglycerol kinase, mitochondrial (Homo sapiens, UniProt Q53H12); probe labelling, inhibitor, KiNativ chemoproteomics; MOLT-4; 1 µM): 5.3%
COc1cc(/C=C/C(=O)Oc2cc(C(F)(F)F)ccc2C(F)(F)F)ccc1OC(C)=O  inhibition (SRD5A1; enzyme activity in cells, inhibitor; HaCaT; 25 µM): 13.5%
Cc1cnc2nc1Nc1cccc(c1)COC/C=C/COCc1cc(ccc1OCCN1CCOCC1)N2  inhibition (JAK2; inhibitor, Z'-LYTE kinase; 15.62 nM): 93.1% and 92.9% and 94.2%
O=C(Nc1ccc(C(=O)c2c[nH]cc2-c2ccc(Cl)cc2)cc1)Nc1ccc(Cl)c(Cl)c1  inhibition (AGER; 100 µM): 5%
Cc1cnc2nc1Nc1cccc(c1)COCc1cc(ccc1OCCN1CCOCC1)N2  inhibition (JAK2; inhibitor, Z'-LYTE kinase; 37.04 nM): 48.5% and 47.4% and 49.8%
Brc1ccccc1-c1nnc(CSc2nnnn2-c2ccccc2)o1  inhibition (5-hydroxytryptamine receptor 3A (HTR3A, Homo sapiens, UniProt P46098); ligand displacement, radioligand; 10 µM): -2%
C[Si](C)(C)C[C@@H](CN)CC(=O)O  inhibition (Thyrotropin-releasing hormone receptor (TRHR, Homo sapiens, UniProt P34981); ligand displacement, radioligand; 75 µM): 17%
CCCCn1cnc2ccc(-c3ccc(NC(=O)CC)nc3)cc2c1=O  inhibition (Phosphatidylinositol 5-phosphate 4-kinase type-2 gamma (PIP4K2C, Homo sapiens, UniProt Q8TBX8); binding, competition with immobilised ligand; 0.5 µM): 95.2%
CC(=O)C12NC(C)(C)CC1(C)C(=O)C1=C2c2c(c3c4n2C(C)(C)CC2=C4C4(CC(C)(C)NC(C)(C4)C2=O)CC3(C)C)C(=O)C(C)(C)N1 (single isomer, unassigned; (-))  inhibition (P2X purinoceptor 3 (P2RX3, Homo sapiens, UniProt P56373); ion current, antagonist, whole-cell patch clamp; HEK293T; 10 µM): 7.06 ± 0.06%
CC[C@H](C)[C@@H]1NC(=O)[C@H](Cc2ccccc2C(F)(F)F)NC(=O)CCSCc2cccc(n2)CSCCCNC(=O)[C@H](CCCCCC(=O)O)NC1=O  inhibition (Histone deacetylase 2 (HDAC2, Homo sapiens, UniProt Q92769); enzyme activity, inhibitor, fluorogenic; 30 µM): 15%
C/C=C/C(=O)Nc1ccc2nc(NCCCCCN(C)C)nc(NCCCCCCN(C)C)c2c1  inhibition (Protein arginine N-methyltransferase 5 (PRMT5, Homo sapiens, UniProt O14744); enzyme activity, inhibitor, radiometric; 50 µM): 3%
COCC(=O)N1CCc2cc(-c3csc(NC(=O)c4cc(OC)cc(OC)c4)n3)ccc21  inhibition (NR3C1; cell-free assay; 10 µM): -24%
COc1ccc(C(=O)Nc2c(-c3cccs3)nc3ccccn23)cc1  inhibition (Alpha-1B adrenergic receptor (ADRA1B, Homo sapiens, UniProt P35368); ligand displacement, radioligand; 10 µM): < 50%
O=C1c2sc(-c3ccc(N4CCC(CO)CC4)nc3F)nc2CCN1c1cccnc1  inhibition (Oxysterols receptor LXR-beta (NR1H2, Homo sapiens, UniProt P55055); ligand displacement, radioligand; 1 µM): -3%
CCn1cc(C(=O)O)c(=O)c2c(N)c(F)c(NC3CCCCC3)cc21  inhibition (5'-AMP-activated protein kinase catalytic subunit alpha-2, with beta2 gamma3 (PRKAA2, Homo sapiens, UniProt P54646); kinase activity; 0.1 µM, added: ATP at Km): 9%
CCCCCNC(=O)N1N=C(c2ccc(Cl)cc2)CC1c1ccc(NC(=O)Nc2ccc(Cl)cc2)cc1 (centres unmarked)  inhibition (AGER; 100 µM): 89%
N#C/C(=C\c1ccc(-c2cc(Cl)ccc2Cl)o1)C(=O)Nc1cccc2ncccc12  inhibition (SIRT2; enzyme activity, inhibitor; 10 µM): < 5%
Cc1ccc(N(O)/N=N/c2ccc(S(=O)(=O)Nc3nccs3)cc2)cc1  inhibition (α-glucosidase, rat intestine; enzyme activity; 60 µg/mL, added: 4-nitrophenyl α-D-glucopyranoside): 12.5 ± 0.01%
CC(C)(C)CNC(=O)C[C@H](NC(=O)CCc1ccccc1)C(=O)N[C@@H](Cc1cccnc1)C(=O)NCc1ccccc1Cl  inhibition (CTSB; enzyme activity, inhibitor; 100 µM): -6%
O=C1c2sc(-c3ccc(N4CCC(F)C4)nc3F)nc2CCN1c1cccnc1 (centres unmarked)  inhibition (MT3 (ML-2) receptor; radioligand binding; 1 µM, added: agonist radioligand): -33%
Cc1[nH]nc2c1N=C(c1ccccc1Cl)c1cnc(N3CCOCC3)cc1N2  inhibition (NR3C1; cell-free assay; 10 µM): 93%
C=CC(=O)Nc1cccc(-c2cnc3[nH]cc(C(=O)NC(C)(C)C)c3n2)c1  inhibition (Testis-specific serine/threonine-protein kinase 2 (TSSK2, Homo sapiens, UniProt Q96PF2); kinase activity; 0.1 µM): 6%
CCCCCCCCCCCCNC(=S)NCCCC[C@H](NC(=O)OCc1ccccc1)C(=O)N1CCC[C@H]1C(=O)N[C@@H](CCCNC(=N)N)C(N)=O  inhibition (SIRT2; enzyme activity, inhibitor; 1 µM): 53%
CN1CCN(Cc2ccc(-c3ccc(CO[C@H]4CCC[C@@H]4NC(=O)c4cc(-c5cnn(C)c5)cnc4N)cc3)cc2)CC1  inhibition (Proto-oncogene tyrosine-protein kinase receptor Ret (RET, Homo sapiens, UniProt P07949, V804L); enzyme activity, inhibitor; 0.1 µM): 7%
CCCCCNC(=O)N1N=C(c2ccc(NC(=O)Nc3ccc(Cl)cc3)cc2)CC1c1ccc(Cl)cc1 (centres unmarked)  inhibition (AGER; 100 µM): 19%
O=C1CO[C@H](CNC(=O)C2(c3ccc(Cl)cc3)CC2)CN1C1Cc2ccccc2C1  inhibition (C-X-C chemokine receptor type 1 (CXCR1, Homo sapiens, UniProt P25024); β-arrestin recruitment, antagonist; 1 µM): 7%
Cc1ccnc(OC[C@H]2CN(CCN3CCc4ccccc43)CCO2)c1  inhibition (D(1B) dopamine receptor (DRD5, Homo sapiens, UniProt P21918); radioligand binding; concentration not given, added: [3H]SCH23390): 23.7%

Repeated from above:
Cc1[nH]nc2c1N=C(c1ccccc1Cl)c1cnc(N3CCOCC3)cc1N2  inhibition (NR3C1; cell-free assay; 10 µM): 93%
C=CC(=O)Nc1cccc(-c2cnc3[nH]cc(C(=O)NC(C)(C)C)c3n2)c1  inhibition (Testis-specific serine/threonine-protein kinase 2 (TSSK2, Homo sapiens, UniProt Q96PF2); kinase activity; 0.1 µM): 6%
